Measured values pooled from the literature.
Each numbered part is a random draw from the data of one study; scales do not carry over between parts.
Sequence of UniProt P10721 (whole entry, unmodified, looked up): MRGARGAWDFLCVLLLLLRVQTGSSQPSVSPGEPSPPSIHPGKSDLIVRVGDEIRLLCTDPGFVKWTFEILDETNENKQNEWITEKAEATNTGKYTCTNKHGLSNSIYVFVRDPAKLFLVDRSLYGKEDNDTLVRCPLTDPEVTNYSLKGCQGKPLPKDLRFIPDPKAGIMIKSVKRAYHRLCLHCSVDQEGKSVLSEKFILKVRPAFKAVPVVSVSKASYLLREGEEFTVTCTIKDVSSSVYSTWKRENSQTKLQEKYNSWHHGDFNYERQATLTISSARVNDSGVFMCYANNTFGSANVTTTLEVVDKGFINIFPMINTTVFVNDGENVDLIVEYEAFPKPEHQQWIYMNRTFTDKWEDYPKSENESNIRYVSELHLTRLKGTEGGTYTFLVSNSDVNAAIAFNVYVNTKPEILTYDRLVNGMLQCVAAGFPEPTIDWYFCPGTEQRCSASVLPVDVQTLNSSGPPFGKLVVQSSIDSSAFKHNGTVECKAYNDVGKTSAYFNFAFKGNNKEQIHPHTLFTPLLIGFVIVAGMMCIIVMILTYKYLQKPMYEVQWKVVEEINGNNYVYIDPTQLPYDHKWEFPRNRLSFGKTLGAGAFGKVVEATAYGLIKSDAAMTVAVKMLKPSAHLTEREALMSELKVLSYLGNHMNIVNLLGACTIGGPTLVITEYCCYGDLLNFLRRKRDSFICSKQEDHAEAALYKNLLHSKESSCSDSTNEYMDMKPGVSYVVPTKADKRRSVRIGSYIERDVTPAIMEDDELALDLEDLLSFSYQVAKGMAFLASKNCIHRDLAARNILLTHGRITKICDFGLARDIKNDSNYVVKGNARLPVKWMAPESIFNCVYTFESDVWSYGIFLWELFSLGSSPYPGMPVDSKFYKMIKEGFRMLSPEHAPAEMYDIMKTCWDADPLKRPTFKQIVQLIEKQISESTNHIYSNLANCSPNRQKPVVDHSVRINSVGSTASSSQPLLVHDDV
Sequence of UniProt Q15746 (whole entry, looked up): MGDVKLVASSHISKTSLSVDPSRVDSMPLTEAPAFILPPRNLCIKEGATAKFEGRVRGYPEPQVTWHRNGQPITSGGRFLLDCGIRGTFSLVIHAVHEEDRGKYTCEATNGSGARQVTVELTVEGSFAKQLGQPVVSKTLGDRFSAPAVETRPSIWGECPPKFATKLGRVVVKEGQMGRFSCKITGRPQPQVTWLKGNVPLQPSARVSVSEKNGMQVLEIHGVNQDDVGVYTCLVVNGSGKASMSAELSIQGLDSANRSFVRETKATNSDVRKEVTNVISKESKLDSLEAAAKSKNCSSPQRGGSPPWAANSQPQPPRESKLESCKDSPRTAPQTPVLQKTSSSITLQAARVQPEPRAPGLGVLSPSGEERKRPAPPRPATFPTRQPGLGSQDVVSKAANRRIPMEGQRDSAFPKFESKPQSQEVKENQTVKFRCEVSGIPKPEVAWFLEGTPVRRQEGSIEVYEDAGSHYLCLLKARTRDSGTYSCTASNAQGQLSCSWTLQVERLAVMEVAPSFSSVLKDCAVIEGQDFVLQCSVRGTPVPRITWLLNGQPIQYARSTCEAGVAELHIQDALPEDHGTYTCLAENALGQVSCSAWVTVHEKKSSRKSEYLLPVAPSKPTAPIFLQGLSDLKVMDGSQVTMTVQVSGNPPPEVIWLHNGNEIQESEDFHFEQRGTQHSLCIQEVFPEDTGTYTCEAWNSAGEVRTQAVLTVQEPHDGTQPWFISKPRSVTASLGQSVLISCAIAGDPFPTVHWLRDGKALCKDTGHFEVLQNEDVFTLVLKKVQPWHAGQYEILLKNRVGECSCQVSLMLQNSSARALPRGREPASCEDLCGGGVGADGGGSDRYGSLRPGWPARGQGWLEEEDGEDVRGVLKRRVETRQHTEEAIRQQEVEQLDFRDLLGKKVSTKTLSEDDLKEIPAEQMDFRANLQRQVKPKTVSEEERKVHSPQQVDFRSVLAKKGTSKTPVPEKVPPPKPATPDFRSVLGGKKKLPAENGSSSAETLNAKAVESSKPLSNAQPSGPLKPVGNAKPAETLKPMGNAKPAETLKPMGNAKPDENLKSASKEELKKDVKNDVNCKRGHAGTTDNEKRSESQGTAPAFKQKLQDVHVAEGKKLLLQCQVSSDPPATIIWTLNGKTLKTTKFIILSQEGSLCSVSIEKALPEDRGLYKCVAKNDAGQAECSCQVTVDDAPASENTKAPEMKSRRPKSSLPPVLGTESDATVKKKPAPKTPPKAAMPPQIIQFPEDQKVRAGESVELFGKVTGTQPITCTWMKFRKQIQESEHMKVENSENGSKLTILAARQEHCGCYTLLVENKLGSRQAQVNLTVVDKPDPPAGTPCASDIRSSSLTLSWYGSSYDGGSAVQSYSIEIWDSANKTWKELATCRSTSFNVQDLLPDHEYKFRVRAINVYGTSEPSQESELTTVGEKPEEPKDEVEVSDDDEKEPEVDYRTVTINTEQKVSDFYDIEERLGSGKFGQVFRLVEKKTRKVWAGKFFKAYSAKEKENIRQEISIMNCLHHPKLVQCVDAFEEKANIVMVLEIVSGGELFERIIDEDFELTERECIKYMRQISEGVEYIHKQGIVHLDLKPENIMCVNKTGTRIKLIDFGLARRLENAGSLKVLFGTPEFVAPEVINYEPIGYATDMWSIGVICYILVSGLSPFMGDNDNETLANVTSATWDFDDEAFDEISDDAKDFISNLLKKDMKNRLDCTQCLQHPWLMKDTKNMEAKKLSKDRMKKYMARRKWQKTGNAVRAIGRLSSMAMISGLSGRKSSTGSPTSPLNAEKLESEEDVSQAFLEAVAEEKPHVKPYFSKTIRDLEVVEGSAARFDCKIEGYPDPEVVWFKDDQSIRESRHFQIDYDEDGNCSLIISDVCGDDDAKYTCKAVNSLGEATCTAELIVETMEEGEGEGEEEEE
Sequence of UniProt Q05655 (whole entry, looked up): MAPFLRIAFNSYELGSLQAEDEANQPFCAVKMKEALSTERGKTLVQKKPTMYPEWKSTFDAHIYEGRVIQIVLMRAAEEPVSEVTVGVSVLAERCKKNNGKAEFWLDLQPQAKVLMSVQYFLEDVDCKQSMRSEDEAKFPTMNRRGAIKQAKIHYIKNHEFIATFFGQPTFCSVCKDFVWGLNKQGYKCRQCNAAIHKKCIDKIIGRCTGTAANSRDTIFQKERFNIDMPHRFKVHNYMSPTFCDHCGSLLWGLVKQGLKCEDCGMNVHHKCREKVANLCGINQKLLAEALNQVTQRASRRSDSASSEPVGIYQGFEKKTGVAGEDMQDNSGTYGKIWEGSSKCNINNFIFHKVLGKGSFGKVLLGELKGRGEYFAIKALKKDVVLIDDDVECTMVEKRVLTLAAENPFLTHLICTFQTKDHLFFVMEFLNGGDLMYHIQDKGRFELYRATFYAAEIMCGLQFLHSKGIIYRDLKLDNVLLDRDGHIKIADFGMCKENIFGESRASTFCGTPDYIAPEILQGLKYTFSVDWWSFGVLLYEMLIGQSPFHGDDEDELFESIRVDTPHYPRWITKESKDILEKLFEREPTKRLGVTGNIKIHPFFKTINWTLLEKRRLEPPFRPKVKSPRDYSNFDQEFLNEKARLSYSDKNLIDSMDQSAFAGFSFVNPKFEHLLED
Sequence of UniProt P78368 (whole entry, looked up): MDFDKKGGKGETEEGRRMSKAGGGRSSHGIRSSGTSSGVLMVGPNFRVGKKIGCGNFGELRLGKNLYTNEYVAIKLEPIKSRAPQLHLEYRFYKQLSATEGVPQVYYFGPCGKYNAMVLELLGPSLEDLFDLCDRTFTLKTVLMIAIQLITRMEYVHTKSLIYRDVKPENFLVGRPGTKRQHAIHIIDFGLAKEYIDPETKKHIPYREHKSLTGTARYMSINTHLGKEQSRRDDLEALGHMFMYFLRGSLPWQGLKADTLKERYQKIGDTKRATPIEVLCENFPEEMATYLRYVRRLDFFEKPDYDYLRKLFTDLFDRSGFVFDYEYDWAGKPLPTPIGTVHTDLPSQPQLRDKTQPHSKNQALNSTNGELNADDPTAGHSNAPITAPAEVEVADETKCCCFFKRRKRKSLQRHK

Series 1
Target: Serine/threonine-protein kinase TAO1 (TAOK1, Homo sapiens, UniProt Q7L7X3)
Sequence of UniProt Q7L7X3 (whole entry, looked up): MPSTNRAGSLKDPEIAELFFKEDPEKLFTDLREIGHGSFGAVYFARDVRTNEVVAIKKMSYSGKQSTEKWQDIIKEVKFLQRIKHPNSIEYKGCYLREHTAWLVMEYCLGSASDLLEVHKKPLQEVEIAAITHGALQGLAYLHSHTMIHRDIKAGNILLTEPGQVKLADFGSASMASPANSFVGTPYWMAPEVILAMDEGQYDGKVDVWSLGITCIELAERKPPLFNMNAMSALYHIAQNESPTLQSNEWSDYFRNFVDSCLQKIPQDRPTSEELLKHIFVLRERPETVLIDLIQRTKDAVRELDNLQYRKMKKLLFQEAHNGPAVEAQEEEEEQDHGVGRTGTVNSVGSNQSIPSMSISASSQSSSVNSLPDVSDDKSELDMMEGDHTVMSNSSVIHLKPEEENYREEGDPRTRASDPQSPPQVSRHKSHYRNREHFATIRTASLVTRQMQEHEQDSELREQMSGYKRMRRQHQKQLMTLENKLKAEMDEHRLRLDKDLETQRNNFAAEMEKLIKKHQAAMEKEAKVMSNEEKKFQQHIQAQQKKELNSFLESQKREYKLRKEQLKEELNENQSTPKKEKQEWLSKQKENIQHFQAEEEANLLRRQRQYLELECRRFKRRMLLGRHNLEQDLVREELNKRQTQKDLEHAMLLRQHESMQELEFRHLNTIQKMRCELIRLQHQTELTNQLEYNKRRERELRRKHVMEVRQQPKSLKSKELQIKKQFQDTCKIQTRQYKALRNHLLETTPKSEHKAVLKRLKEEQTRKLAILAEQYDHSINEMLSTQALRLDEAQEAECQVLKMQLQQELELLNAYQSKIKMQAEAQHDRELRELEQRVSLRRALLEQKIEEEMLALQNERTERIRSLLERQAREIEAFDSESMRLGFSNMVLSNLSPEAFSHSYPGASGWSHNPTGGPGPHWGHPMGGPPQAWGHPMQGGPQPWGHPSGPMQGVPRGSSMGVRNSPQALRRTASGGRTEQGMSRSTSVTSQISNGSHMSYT
Read-out: enzyme activity
Mode: inhibitor
Tested at: 0.5 µM
Relative to: control
With `COc1cc2c(cc1OC)-c1[nH]nc(Nc3cccc(F)c3)c1C2` the remaining activity was 76.3%.
For `N#Cc1c(NC(=O)c2cccc3ccccc23)sc2c1CCCC2`, the remaining activity was 106%.
With `CCOc1nc(NC(=O)Cc2cc(OC)ccc2OC)cc(N)c1C#N` the remaining activity was 109%.
`COc1cc2ncnc(Nc3cccc(Cl)c3)c2cc1OC` gave a remaining activity of 108%.
With `Cc1nc2cc3nc(-c4cccs4)cnc3cc2n1C` the remaining activity was 110%.
`O=C(NC(NC(=S)Nc1ccc(F)c([N+](=O)[O-])c1)C(Cl)(Cl)Cl)C(c1ccccc1)c1ccccc1` (centres unmarked) gave a remaining activity of 104%.
`O=C1C(Cl)=C(N2C(=O)CCC2=O)C(=O)c2ccccc21` gave a remaining activity of 83.1%.
`Cc1cn(-c2cc(NC(=O)c3ccc(C)c(Nc4nccc(-c5cccnc5)n4)c3)cc(C(F)(F)F)c2)cn1` has a remaining activity of 78.5%.
With `Ic1cccc(CSc2nnc(-c3ccncc3)o2)c1` the remaining activity was 101%.
`C[C@@H]1CCN(C(=O)CC#N)C[C@@H]1N(C)c1ncnc2[nH]ccc12` has a remaining activity of 99.9%.
`Cc1cc2ncc(-c3ccccc3)nc2cc1C` has a remaining activity of 94.3%.
`Cn1nc2c3c(cccc31)C(=O)c1ccccc1-2` has a remaining activity of 100%.
`Nc1cccc(-c2cc3c(Oc4cccc(O)c4)ncnc3[nH]2)c1` gave a remaining activity of 142%.
With `N#C/C(=C\c1ccc(O)c(O)c1)C(=O)NCc1ccccc1` the remaining activity was 95.1%.
The remaining activity of `CCN(CC)C(=O)c1ccc(Nc2nc(OCC3CCCCC3)c3[nH]cnc3n2)cc1` is reported as 57.9%.
The remaining activity of `CN(C)C[C@H]1CCn2c(c(C3=C(c4cn(C)c5ccccc45)C(=O)NC3=O)c3ccccc32)C1` is reported as 93%.
`O=C(Nc1cccc(Nc2nccc(Nc3cccc(C(F)(F)F)c3)n2)c1)C1CC1` gave a remaining activity of 97.9%.
`CN([C@@H](Cc1ccc(OS(=O)(=O)c2cccc3cnccc23)cc1)C(=O)N1CCN(c2ccccc2)CC1)S(=O)(=O)c1cccc2cnccc12` has a remaining activity of 98.7%.
For `O=C1c2ccccc2-c2n[nH]c3cccc1c23`, the remaining activity was 92.5%.
For `CCN(CC)CCNC(=O)c1c(C)[nH]c(/C=C2\C(=O)Nc3ccc(Cl)cc32)c1C`, the remaining activity was 65.8%.
`c1ccc(-c2[nH]ncc2-c2ccnc3ccccc23)nc1` has a remaining activity of 93%.

Series 2
Structure (SMILES): CC(=O)N1CCC(c2ccc(C(=O)NC3=NCCN3)cc2C(F)(F)F)CC1
Technique: competition with immobilised ligand
Tested at: 1 µM
The remaining binding was 88% (CILK1 (Homo sapiens, UniProt Q9UPZ9); binding).
For RIPK1 (Homo sapiens, UniProt Q13546); cell-free assay: remaining binding read 100%.
For AKT1 (Homo sapiens, UniProt P31749); cell-free assay: remaining binding read 100%.
The remaining binding was 95% (KIT (Homo sapiens, UniProt P10721, L576P); cell-free assay).
The remaining binding was 82% (SGK3 (Homo sapiens, UniProt Q96BR1); cell-free assay).
It gave 100% for remaining binding (RAF1 (Homo sapiens, UniProt P04049); cell-free assay).
The remaining binding was 100% (KIT (Homo sapiens, UniProt P10721, T670I/V559D); cell-free assay).
It gave 68% for remaining binding (TNIK (Homo sapiens, UniProt Q9UKE5); cell-free assay).
The remaining binding was 95% (MAP3K14 (Homo sapiens, UniProt Q99558); cell-free assay).
It gave 89% for remaining binding (SRMS (Homo sapiens, UniProt Q9H3Y6); cell-free assay).
It gave 100% for remaining binding (PIK3CA (Homo sapiens, UniProt P42336, H1047Y); cell-free assay).
For Ribosomal protein S6 kinase alpha-4, C-terminal kinase domain (RPS6KA4, Homo sapiens, UniProt O75676); cell-free assay: remaining binding read 81%.
The remaining binding was 100% (MAP2K7 (Homo sapiens, UniProt O14733); cell-free assay).
BMX (Homo sapiens, UniProt P51813); cell-free assay — remaining binding: 100%.
It gave 80% for remaining binding (PLK2 (Homo sapiens, UniProt Q9NYY3); cell-free assay).
The remaining binding was 91% (HIPK1 (Homo sapiens, UniProt Q86Z02); cell-free assay).
It gave 100% for remaining binding (DDR1 (Homo sapiens, UniProt Q08345); cell-free assay).
It gave 100% for remaining binding (EPHB1 (Homo sapiens, UniProt P54762); cell-free assay).
The remaining binding was 100% (Ribosomal protein S6 kinase alpha-3, N-terminal kinase domain (RPS6KA3, Homo sapiens, UniProt P51812); cell-free assay).
The remaining binding was 83% (Ribosomal protein S6 kinase alpha-2, C-terminal kinase domain (RPS6KA2, Homo sapiens, UniProt Q15349); cell-free assay).
LATS2 (Homo sapiens, UniProt Q9NRM7); cell-free assay — remaining binding: 91%.
The remaining binding was 90% (MYLK (Homo sapiens, UniProt Q15746); cell-free assay).
It gave 100% for remaining binding (EGFR (Homo sapiens, UniProt P00533, L861Q); cell-free assay).
For ERBB3 (Homo sapiens, UniProt P21860); cell-free assay: remaining binding read 94%.
For DYRK1A (Homo sapiens, UniProt Q13627); cell-free assay: remaining binding read 74%.

Series 3
Compound: Cc1nc(Nc2ncc(C(=O)Nc3c(C)cccc3Cl)s2)cc(N2CCN(CCO)CC2)n1
Mode: inhibitor
The inhibition was less than 50% (PRKAA1 (Homo sapiens, UniProt Q13131); 10 µM).
It gave less than 50% for inhibition (MARK1 (Homo sapiens, UniProt Q9P0L2); 10 µM).
For CDC42BPB (Homo sapiens, UniProt Q9Y5S2); 10 µM: inhibition read 90%.
It gave less than 50% for inhibition (PRKG1 (Homo sapiens, UniProt Q13976); 10 µM).
The inhibition was less than 50% (CSNK1G2 (Homo sapiens, UniProt P78368); 10 µM).
It gave less than 50% for inhibition (ULK1 (Homo sapiens, UniProt O75385); 10 µM).
For CSNK2A1 (Homo sapiens, UniProt P68400); 10 µM: inhibition read less than 50%.
It gave 83% for inhibition (ERBB4 (Homo sapiens, UniProt Q15303); 1 µM).
It gave less than 50% for inhibition (CSNK1G1 (Homo sapiens, UniProt Q9HCP0); 10 µM).
The inhibition was 88% (STK10 (Homo sapiens, UniProt O94804); 10 µM).

Series 4
Compound: COc1ccc2[nH]c3c4[nH]c5ccc(OC)cc5c4c4c(c3c2c1)C(=O)NC4=O
Tested at: 1 µM
It gave 88% for remaining binding (GRK2 (Homo sapiens, UniProt P25098); competitive binding panel; relative to: vehicle).
The remaining binding was 84% (CDC42BPG (Homo sapiens, UniProt Q6DT37); competitive binding panel, refers to: DMPK2; relative to: vehicle).
For MATK (Homo sapiens, UniProt P42679); competitive binding; CTK: remaining binding read 93%.
For PKN1 (Homo sapiens, UniProt Q16512); competitive binding panel; relative to: vehicle: remaining binding read 42%.
It gave 93% for remaining binding (PRKCD (Homo sapiens, UniProt Q05655); competitive binding panel; relative to: vehicle).
For CSNK1E (Homo sapiens, UniProt P49674); competitive binding panel; relative to: vehicle: remaining binding read 52%.
Aurora kinase C (AURKC, Homo sapiens, UniProt Q9UQB9); competitive binding panel; relative to: vehicle — remaining binding: 17%.
It gave 68% for remaining binding (PRKD1 (Homo sapiens, UniProt Q15139); competitive binding panel; relative to: vehicle).
SYK (Homo sapiens, UniProt P43405); competitive binding panel; relative to: vehicle — remaining binding: 73%.
It gave 84% for remaining binding (ABL1 (Homo sapiens, UniProt P00519, F317L); competitive binding panel; relative to: vehicle).
It gave 82% for remaining binding (STK3 (Homo sapiens, UniProt Q13188); competitive binding panel, refers to: MST2; relative to: vehicle).
The remaining binding was 72% (DDR2 (Homo sapiens, UniProt Q16832); competitive binding panel; relative to: vehicle).

Excerpt of the above (series 4):
For MATK (Homo sapiens, UniProt P42679); competitive binding; CTK: remaining binding read 93%.
For PKN1 (Homo sapiens, UniProt Q16512); competitive binding panel; relative to: vehicle: remaining binding read 42%.
It gave 88% for remaining binding (GRK2 (Homo sapiens, UniProt P25098); competitive binding panel; relative to: vehicle).
The remaining binding was 84% (CDC42BPG (Homo sapiens, UniProt Q6DT37); competitive binding panel, refers to: DMPK2; relative to: vehicle).
Aurora kinase C (AURKC, Homo sapiens, UniProt Q9UQB9); competitive binding panel; relative to: vehicle — remaining binding: 17%.
SYK (Homo sapiens, UniProt P43405); competitive binding panel; relative to: vehicle — remaining binding: 73%.
It gave 93% for remaining binding (PRKCD (Homo sapiens, UniProt Q05655); competitive binding panel; relative to: vehicle).
It gave 68% for remaining binding (PRKD1 (Homo sapiens, UniProt Q15139); competitive binding panel; relative to: vehicle).
